Results collected from several papers.
Lines come from different studies, so protocols differ. ± gives the spread as reported.
Organism: Salmonella typhimurium

CC(C)N(C)N=O — result for “revertant colonies per plate”: 6 ± 2 (mutagenicity, Ames plate incorporation; TA1537; 1500 µg/plate, 3 d, without S9, methanol).
For O=[N+]([O-])c1ccc(N2CCN(CCC(O)c3ccc(F)cc3)CC2)c(C(F)(F)F)c1 (stereo not drawn), the survival was 86.1% (SOS/umu test; TA1535/pSK1002, TGA medium; 0.001 mg/mL, 4 h, added: rat liver S9).
CNC(=O)c1c(N(C)N=O)ncn1C — result for “revertant colonies per plate”: 36.7 ± 2 (plate incorporation; TA1535, water; 1500 µg/plate, without S9).
For O=[N+]([O-])c1ccc(NC2CCNCC2)c(C(F)(F)F)c1, the induction factor was 0.7 (SOS response, SOS/umu test; TA1535/pSK1002, TGA medium; 0.5 mg/mL, 4 h, added: 10% rat liver S9; reference: untreated).
Under “revertant colonies per plate”, CN(N=O)c1ccc(F)cc1 is recorded as 14.7 ± 4 (mutagenicity, Ames plate incorporation; TA1535; 50 µg/plate, 3 d, without S9, methanol).
Cc1cc(C(=O)NC(C)(C)COc2cccc3c2C(N)=NS(=O)(=O)N3)cc(C)n1 has a revertant ratio of 0.9 (Ames test, initial; TA100; 1.50 µg/plate, added: rat liver S9; reference: solvent control).
With N#C[C@@]1(n2ccc(N)nc2=O)O[C@H](CO)[C@@H](O)[C@H]1O the viability was 106 (TA100; 1.2 µM, without S9, unit not given; reference: control).
Under “fold increase in revertants”, CC(=O)N1CCC(C(=O)N2CCN3C(=O)c4cc(-c5ccccc5)ccc4NC(=O)C3C2)CC1 (stereo not drawn) is recorded as 1.4 (TA98; 1.58 µg/plate; reference: vehicle).
O=[N+]([O-])c1ccc(N2CCC(NCCC(O)c3ccc(F)c4ccccc34)CC2)c(C(F)(F)F)c1 (stereo not drawn) has an induction factor of 0.42 (genotoxicity, SOS/umu test; TA1535/pSK1002; 0.016 mg/mL, 4 h, without S9, full range).
COc1cccc(-c2n[nH]c(SCc3ccccn3)n2)c1OC — result for “revertant colonies per plate”: 14 (Ames test, plate incorporation; TA1535; 0.25 mg/plate, without S9).
For CC(C)N(N=O)C(C)C, “revertant colonies per plate” read 144 ± 22 (mutagenicity, Ames plate incorporation; TA100; 500 µg/plate, without S9, methanol).
OC(CCN1CC=C(c2ccc(F)cc2)CC1)c1ccc(F)c2ccccc12 (stereo not drawn) gave an induction factor of 0.6 (genotoxicity, SOS/umu test; TA1535/pSK1002; 0.016 mg/mL, 4 h, with S9, lower range).

A few entries again:
For O=[N+]([O-])c1ccc(NC2CCNCC2)c(C(F)(F)F)c1, the induction factor was 0.7 (SOS response, SOS/umu test; TA1535/pSK1002, TGA medium; 0.5 mg/mL, 4 h, added: 10% rat liver S9; reference: untreated).
Under “revertant colonies per plate”, CN(N=O)c1ccc(F)cc1 is recorded as 14.7 ± 4 (mutagenicity, Ames plate incorporation; TA1535; 50 µg/plate, 3 d, without S9, methanol).
